Experimental data gathered from unrelated publications.
Each line is one published result; not all experiments were run side by side. ± marks the error that the study gave.
Cell line: HEK-293T

Compound | assay | conditions | measurement | result
CCCCCCCCCCCCNC(=S)NCCCC[C@H](NS(C)(=O)=O)C(=O)N[C@H](C)C(=O)N[C@@H](CCCNC(=N)N)C(N)=O | cell growth or viability, MTT | 72 h | EC50 | 4.88 to 18.3 µM
COc1ccc(NC(=O)c2cnn(-c3ccc([N+](=O)[O-])cc3)c2C(F)(F)F)cc1OC | cell viability, MTS | 50 µM, 72 h | inhibition | 7.4 ± 0.69%
CCCCCCCCCCCCSCC(COCC(O)C[N+](C)(CCO)CCO)SCCCCCCCCCCCC (centres unmarked) | cell growth or viability, MTT | 24 h | IC50 | 165 µM
CCCCCCCCCCCCCC(=S)NCCCC[C@H](NS(C)(=O)=O)C(=O)N[C@H](C)C(=O)N[C@@H](CCCNC(=N)N)C(N)=O | cell growth or viability, MTT | 72 h | EC50 | 10.3 to 21.3 µM
Cc1cc(C)nc(SCC(=O)Nc2ncc(Cc3cccc(OCc4cn(Cc5ccc(C#N)cc5)nn4)c3)s2)n1 | cell viability, MTS | 10 µM | inhibition | 70.9 ± 1.7%
O=C(NCCN1CCCC1)c1ccc2cc(C(=O)c3cc(O)c(O)c(O)c3)oc2c1 | cell growth or viability, ATP luminescence | 24 h | IC50 | > 64 µg/mL
COc1cc(NC(=O)c2cnn(-c3ccc([N+](=O)[O-])cc3)c2C(F)(F)F)c(OC)cc1Cl | cell viability, MTS | 50 µM, 72 h | inhibition | 20.1 ± 1.65%
COCCn1cc(COc2cccc(Cc3cnc(NC(=O)CSc4nc(C)cc(C)n4)s3)c2)nn1 | cell viability, MTS | 10 µM | inhibition | 20.8 ± 8.3%
CCCCCCCCCCCCNC(=S)NCCCC[C@H](NC(=O)OCc1ccccc1)C(=O)N[C@H](C)C(=O)N[C@@H](CCCNC(=N)N)C(N)=O | cell growth or viability, MTT | 72 h | EC50 | 32.3 to 60.4 µM
O=[N+]([O-])c1ccc(O)c(/C=N/Nc2ccccc2)c1 | cell growth or viability, MTT | 24 h | IC50 | 16 µM
C=CCOCO[C@H](C(=O)NC[C@@H]1C[C@@H](OC)C(C)(C)[C@@H](C[C@@H](COC)OC)O1)[C@@]1(OC)CC(=C)[C@@H](C)[C@@H](C)O1 | cell viability, sulforhodamine B | 48 h, 37 °C, without H2O2 | IC50 | 4.04 ± 0.212 µM
